Experimental data from different studies.
Each numbered part is a random draw from the data of one study; scales do not carry over between parts. Substitutions count along the parent as printed.

Series 1
Target: Fragile X messenger ribonucleoprotein 1, C-terminal low-complexity region (Fmr1, Mus musculus, UniProt P35922)
Technique: RNA Bind-n-Seq
Molecule type: RNA
Sample: in vitro
Concentration: 200 nM
Notes: whole 134-nt RNA, ends assumed
With: 150 mM LiCl
Reference: input library
Reading: higher = stronger binding
Each molecule: 7-deaza-guanosine replaces G
With `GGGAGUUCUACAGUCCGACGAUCUGGCCCUGGUGGCAUGCGGGGAGGAAGAGGUGGCCUCAUGGAUCGUGGAGGUCCCGGUGGAAUGUUCAGAGGUGGCCGUGGUGGAGACAGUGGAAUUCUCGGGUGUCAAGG` the log2 enrichment was 0.342.
The log2 enrichment of `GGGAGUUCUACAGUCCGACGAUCAAGUCCUGUGCUACACAUCGUAUGUACCGAAUCGGGAAAAGGGGAAAAGGGAAAAGGAAAGUAUUAUGUUACGCCGUUCGGAUCUGCACUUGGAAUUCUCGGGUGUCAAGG` is reported as 0.143.
With `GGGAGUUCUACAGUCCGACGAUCACCAUGCAGGUGGGCAUCUUUGGGAAAUGGGGCAAGGGGGGGAUAGGGAGGGGGGUAACACUUUGGGAACAGGUGGUCCCAGGUCGUUUCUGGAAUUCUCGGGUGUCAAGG` the log2 enrichment was 1.48.
`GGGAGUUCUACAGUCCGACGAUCCCUCAAGUCCUGUGCUACACAUCGUAUGUACCGAAUCGGGUGGUGGGGUGGGAAAGUAUUAUGUUACGCCGUUCGGAUCUGCACUUCCAGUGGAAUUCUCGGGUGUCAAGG` gave a log2 enrichment of -0.33.
`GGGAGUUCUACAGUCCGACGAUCGCAGGAAGUAAAAACAAAUGGAAAUGCUUCGGAUAGUGGCAGGGGUGGGGGCUGCUAAGGAAAGGGUGGGAUGGGAGUGGGUAAAGAGUUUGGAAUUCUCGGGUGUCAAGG` has a log2 enrichment of 1.72.
`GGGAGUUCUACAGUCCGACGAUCAGUCCUGUGCUACACAUCGUAUGUACCGAAUCGGGGUUUUGGGUUUUGGUUUUGGGGAAAGUAUUAUGUUACGCCGUUCGGAUCUGCACUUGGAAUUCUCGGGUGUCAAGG` gave a log2 enrichment of -2.06.

Series 2
Target: ABI1, truncated, D143A, DHFR fusion (Arabidopsis thaliana, UniProt P49597)
Technique: DHFR PCA, dose-response
Sample: yeast
Notes: Hill fit, mean, not affinity
With: (+)-ABA, dose series
Reading: lower = more sensitive
Parent: PYL1, truncated, DHFR fusion (Arabidopsis thaliana, UniProt Q8VZS8); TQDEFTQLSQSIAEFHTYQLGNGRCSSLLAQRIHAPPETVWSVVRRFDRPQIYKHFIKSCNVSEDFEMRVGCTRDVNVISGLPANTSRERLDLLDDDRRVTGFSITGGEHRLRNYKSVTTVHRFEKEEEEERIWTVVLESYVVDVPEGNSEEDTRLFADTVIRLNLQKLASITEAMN
With `A175F` the ABA EC50 was 4.47 µM.
`R24N` gave an ABA EC50 of 8.6 µM.
`T17P` has an ABA EC50 of 222 µM.
`V143M` has an ABA EC50 of 22.1 µM.
`E67I` has an ABA EC50 of 3.77 µM.
`E109V` gave an ABA EC50 of 7.66 µM.
With `D3G` the ABA EC50 was 4.92 µM.
The ABA EC50 of `R155F` is reported as 193 µM.
With `S9T` the ABA EC50 was 2.55 µM.
For `S42Q`, the ABA EC50 was 3.02 µM.
`H34F` gave an ABA EC50 of 4.45 µM.
The ABA EC50 of `D95F` is reported as 96.7 µM.
`D92S` gave an ABA EC50 of 88 µM.

Series 3
Target: Histone acetyltransferase KAT6A, winged helix 1, GST fusion (KAT6A, Homo sapiens, UniProt Q92794, residues 1-85)
Technique: protein binding microarray
Molecule type: double-stranded DNA, one strand shown
Sample: in vitro
Concentration: not given
Notes: 8-mer, flanks averaged, mean of 2 arrays, mostly near background
Reference: not given
Reading: higher = stronger binding
Target sequence (chain): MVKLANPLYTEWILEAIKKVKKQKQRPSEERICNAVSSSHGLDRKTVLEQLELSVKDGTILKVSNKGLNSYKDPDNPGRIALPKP
With `ACACTGGA` the E-score was -0.16.
`CGGTATAC` has an E-score of 0.236.
With `ATCAAAAC` the E-score was -0.033.
The E-score of `CGTAGCCC` is reported as 0.152.
For `CGCCTGTA`, the E-score was 0.00456.
The E-score of `ACAGCCTA` is reported as -0.106.
`AAGTCGGC` has an E-score of 0.167.
`CCTTAAGG` has an E-score of -0.271.
`ATAACCCG` gave an E-score of 0.239.
`CAAGGTAG` gave an E-score of -0.214.
`ATATCTTG` gave an E-score of -0.224.
For `AATTGTCA`, the E-score was -0.126.
For `CATGTGCG`, the E-score was 0.213.
`GGAACTCC` gave an E-score of -0.0344.
For `CAGTTTCC`, the E-score was -0.02.
The E-score of `GGTTGCAC` is reported as -0.0957.
`GTAACCAA` has an E-score of -0.0282.
For `GAATTCCC`, the E-score was -0.0618.
For `AACCTTCC`, the E-score was 0.102.
For `CTCATAAA`, the E-score was -0.0463.
`AAACAGCC` gave an E-score of -0.18.
With `GAAATAAC` the E-score was -0.203.
For `AGATAACA`, the E-score was -0.197.

Series 4
Target: CCNB1, cyclin fold, Cln2 fusion (human)
Technique: yeast growth competition, sequencing
Sample: yeast
Notes: strong parent motif
Reference: not given
Reading: higher = stronger binding
Parent: PKMYT1 docking peptide (human); SFEPRNLLSLFED; partner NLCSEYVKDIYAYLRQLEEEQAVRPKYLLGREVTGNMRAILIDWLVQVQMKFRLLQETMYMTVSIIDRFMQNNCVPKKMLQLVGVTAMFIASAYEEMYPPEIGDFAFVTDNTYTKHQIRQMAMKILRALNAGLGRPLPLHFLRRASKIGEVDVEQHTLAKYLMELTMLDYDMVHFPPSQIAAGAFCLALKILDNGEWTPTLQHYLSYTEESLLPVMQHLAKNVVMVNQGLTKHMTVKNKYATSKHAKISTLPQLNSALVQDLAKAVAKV
Under “normalised enrichment score”, `SFEPRNLLSLDED [F11D]` is recorded as -0.487.
Under “normalised enrichment score”, `SFEPRNLLSGFED [L10G]` is recorded as 0.21.
Under “normalised enrichment score”, `RFEPRNLLSLFED [S1R]` is recorded as 0.877.
Under “normalised enrichment score”, `MFEPRNLLSLFED [S1M]` is recorded as 1.42.
`SFEPRNALSLFED [L7A]`: “normalised enrichment score” 0.0612.
For `SFEPRNILSLFED [L7I]`, “normalised enrichment score” read 0.983.
Under “normalised enrichment score”, `SFEPRNLGSLFED [L8G]` is recorded as -0.195.
`SFEPRNLLSYFED [L10Y]` — result for “normalised enrichment score”: 1.01.
`SFDPRNLLSLFED [E3D]`: “normalised enrichment score” 0.156.
For `SFEPRNLLSLFET [D13T]`, “normalised enrichment score” read 0.945.
`SFEPVNLLSLFED [R5V]` — result for “normalised enrichment score”: 0.62.
`SFEPRNLLTLFED [S9T]`: “normalised enrichment score” 1.07.
For `SFEPRNLLSAFED [L10A]`, “normalised enrichment score” read 1.16.

Series 5
Target: Runt-related transcription factor 3, Runt domain (RUNX3, Homo sapiens, UniProt Q13761, residues 53-186)
UniProt Q13761, sequence (53-186, looked up): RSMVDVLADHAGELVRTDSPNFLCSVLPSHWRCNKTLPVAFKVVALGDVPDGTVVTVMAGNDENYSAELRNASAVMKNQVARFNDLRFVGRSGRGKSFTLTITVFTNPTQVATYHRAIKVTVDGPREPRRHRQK
Technique: protein-binding microarray
Molecule type: hairpin DNA
Sample: in vitro
Concentration: not given
Notes: whole hairpin DNA, median over replicate spots
Reference: not given
Reading: higher = stronger binding
With `GAGGCCTGCGGCGGTTGGCCTCCTGGCCAACCGCCGCAGGCCTCACACTC` the median fluorescence was 6240 a.u.
`GAGGCCTGTCGCCGTTGGCCTCCTGGCCAACGGCGACAGGCCTCACACTC (5mC at 31)` gave a median fluorescence of 5080 a.u.
For `GAGGCCCAACCGCGACAGCCTCCTGGCTGTCGCGGTTGGGCCTCACACTC (5mC at 31)`, the median fluorescence was 10100 a.u.
The median fluorescence of `GCGGCCTGTCGCGGTTGGCCTCCTGGCCAACCGCGACAGGCCGCACACTC (5mC at 2)` is reported as 6240 a.u.
With `GAGGCCTCGTGCGGTTGGCCTCCTGGCCAACCGCACGAGGCCTCACACTC` the median fluorescence was 6940 a.u.
`GAGGCCAAACCGCAACAGCCTCCTGGCTGTTGCGGTTTGGCCTCACACTC` gave a median fluorescence of 12800 a.u.
`GAGGCCTGTTGTGGTTGGCCTCCTGGCCAACCACAACAGGCCTCACACTC (5mC at 31)` gave a median fluorescence of 4350 a.u.
`GAGGCCTGTTGTGGTGGGCCTCCTGGCCCACCACAACAGGCCTCACACTC` has a median fluorescence of 5070 a.u.
`GAGGCCCCGCCGCAACAGCCTCCTGGCTGTTGCGGCGGGGCCTCACACTC (5mC at 8)` gave a median fluorescence of 5720 a.u.
With `GAGGCCCGTTGTGGTTGGCCTCCTGGCCAACCACAACGGGCCTCACACTC (5mC at 37)` the median fluorescence was 5780 a.u.
For `GAGGCCTGTCGCCGTTGGCCTCCTGGCCAACGGCGACAGGCCTCACACTC (5mC at 13)`, the median fluorescence was 5330 a.u.
With `GAGGCCTGTTCCGGTTGGCCTCCTGGCCAACCGGAACAGGCCTCACACTC (5mC at 11)` the median fluorescence was 4830 a.u.
With `GAGGCCCAACCCCAACAGCCTCCTGGCTGTTGGGGTTGGGCCTCACACTC (5mC at 12)` the median fluorescence was 5180 a.u.

Some of these lines once more (series 4):
Under “normalised enrichment score”, `RFEPRNLLSLFED [S1R]` is recorded as 0.877.
`SFEPRNLLTLFED [S9T]`: “normalised enrichment score” 1.07.
Under “normalised enrichment score”, `SFEPRNLGSLFED [L8G]` is recorded as -0.195.
Under “normalised enrichment score”, `MFEPRNLLSLFED [S1M]` is recorded as 1.42.
Under “normalised enrichment score”, `SFEPRNLLSLDED [F11D]` is recorded as -0.487.
For `SFEPRNLLSLFET [D13T]`, “normalised enrichment score” read 0.945.
`SFDPRNLLSLFED [E3D]`: “normalised enrichment score” 0.156.
For `SFEPRNILSLFED [L7I]`, “normalised enrichment score” read 0.983.
`SFEPVNLLSLFED [R5V]` — result for “normalised enrichment score”: 0.62.
`SFEPRNALSLFED [L7A]`: “normalised enrichment score” 0.0612.
`SFEPRNLLSYFED [L10Y]` — result for “normalised enrichment score”: 1.01.
